Measured values of several laboratories.
Numbered parts are unrelated; each lists some results of a single study. Positions count from the first letter of the parent shown.

Sample 1 — method: RNA Bind-n-Seq; form: RNA; matrix: in vitro; tested at: 365 nM; reference: no-protein control; reading: higher = stronger binding; measurement: RBNS enrichment (R)
Target: RNA binding protein fox-1 homolog 2, RRM domain, GST-SBP tag (RBFOX2, Homo sapiens, UniProt O43251-10, residues 100-194)
Setting: natural RNA segment, single round, ends assumed
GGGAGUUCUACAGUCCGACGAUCGAUAGUGUGGGUCUCCUGAAGGCCCUUGGCUGUUUGCAAAUGGACCUAAUGAUAUGAAGCCUUCUUUGUCUCUGACCUUUUUUCUCUGAGACCAGGAAUCUAGAUAAUAGUGGAAUUCUCGGGUGCCAA: 0.484
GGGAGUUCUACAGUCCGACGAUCCUAAAUUCUUUACCAUCAGAAAGAAAAGGAGUGUCAUACACUUUCAAGGGAAGGCUUGGUCUGCGUUUUCUGUGUUUGGAUUAUUUUUAUACUUUGCUGAUCUUUAAGCUUGGAAUUCUCGGGUGCCAA: 0.812
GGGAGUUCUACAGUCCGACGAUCGAUAAUACAAUCUACUUACACACAUGAAUUUCUUAAAAAAAUCAAUUUAAUGCCCUAACUCUCUUAUUAAGGAGAAAUAGAAAAGAAGAAAUUUAUAAUGAAAAGAAGAUUGGAAUUCUCGGGUGCCAA: 0.517
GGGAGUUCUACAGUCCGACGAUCAAUGUUCCCUCCCAUCUCAGGCCAGCGCCAUGUCGAGGCAUCUUCAGUCCACCCCUGCCUAAGGCUCAGGCUACCUGCUUUGGGGCACAGCUUCCUGGUACUCACAGCAUUGGAAUUCUCGGGUGCCAA: 0.611
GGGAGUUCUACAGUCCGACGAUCUCCAUUAUCUAUAUAGUCCUGUCUUGUCUAUUGUAUAUAUAAUCUAUAUGAUUAAAGAAAAUAUGCAUAAUCAGACAAGCUUGAAUAUUGUUUUUGCACCAGACGAACAGUGGAAUUCUCGGGUGCCAA: 0.388
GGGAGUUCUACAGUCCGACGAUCACUUGUUUUCUUUUGGCUUUUGUUGUUUUUGUUUUGUUCUGUUUGUUUUGUUUUGUAUUUCUUUGUUAUUUUAUUGGGAAGGUAAGCGGAAUGUGCUCAUAGACCAUCAGUGGAAUUCUCGGGUGCCAA: 3.71
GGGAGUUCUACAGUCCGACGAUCAACUCUUUGUAGUUUUGUCAAAGACAAAUACUCUGUAAAGUCCCCCACCUACCCCAGAUCUACAGCUUUUUAGCUUUUAAUUUGAAUCAUCUGCAUAGUUGCUUGGAUCAUGGAAUUCUCGGGUGCCAA: 0.387
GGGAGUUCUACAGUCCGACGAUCGUUCAGAUACUGCUGGUAAAGAAACUGGAAAAACUGAAGGAAGGAAUAAAAUAUGUUGGUGGUAUUAACACCUCCAGUAAGAUAAGUCAUUGGUACGGUUUUUCUAAGGGUGGAAUUCUCGGGUGCCAA: 0.378

Sample 2 — method: DHFR PCA, deep sequencing; matrix: yeast; added: (+)-ABA 200 µM; reference: wild-type fitted maximum; reading: higher = stronger binding; measurement: relative binding score
Target: ABI1, truncated, D143A, DHFR fusion (Arabidopsis thaliana)
Setting: methotrexate growth selection, single substitutions
Starting sequence: PYL1, truncated, DHFR fusion (Arabidopsis thaliana); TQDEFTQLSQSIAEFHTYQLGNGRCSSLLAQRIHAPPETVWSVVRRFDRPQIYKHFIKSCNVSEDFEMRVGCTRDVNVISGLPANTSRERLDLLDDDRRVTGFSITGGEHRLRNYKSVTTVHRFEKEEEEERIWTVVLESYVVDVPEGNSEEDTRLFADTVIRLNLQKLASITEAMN; partner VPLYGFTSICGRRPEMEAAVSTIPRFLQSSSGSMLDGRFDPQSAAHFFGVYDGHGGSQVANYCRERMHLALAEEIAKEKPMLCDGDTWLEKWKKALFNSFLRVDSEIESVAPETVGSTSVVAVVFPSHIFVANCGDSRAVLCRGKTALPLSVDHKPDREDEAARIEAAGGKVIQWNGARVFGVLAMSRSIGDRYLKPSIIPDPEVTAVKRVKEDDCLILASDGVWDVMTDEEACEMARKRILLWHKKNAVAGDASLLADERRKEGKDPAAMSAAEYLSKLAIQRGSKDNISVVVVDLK
N77I: 104%
T6D: 97.1%
L29D: 9.8%
L169G: 4.07%
Q19A: 97.4%
H34Q: 90.8%
R155M: 93.8%
F5Y: 85%
T101S: 98.1%
F157D: 6.45%
A170L: 63.9%
G23P: 65.6%

Sample 3 — target: CCND3, cyclin fold, Cln2 fusion (human); method: yeast growth competition, sequencing; matrix: yeast; setting: weak parent motif; reference: not given; reading: higher = stronger binding; measurement: normalised enrichment score
Starting sequence: SLBP docking peptide (human); ARYKRKLLINDFG
L8G: 0.087
R5W: -0.02
K6Q: 0.149
F12L: 0.176
D11Y: 0.244
A1G: 0.137
K4M: 0.14
N10F: 0.136
G13C: 0.139
K4H: 0.216
L7Y: 0.146
Y3I: 0.174
Y3C: 0.136
A1S: 0.195
R5P: 0.0883
K4T: 0.0509
F12W: 0.115
G13V: 0.261
L8Y: 0.118
A1R: 0.144
L8D: 0.0978
L8C: 0.151
R2K: 0.21
L8W: 0.148
K6L: 0.238

Sample 4 — method: RNA Bind-n-Seq; form: RNA; matrix: in vitro; tested at: 20 nM; setting: 6-mer, flanks averaged, single round; added: 150 mM LiCl; reference: input library; reading: higher = stronger binding; measurement: 6-mer enrichment (R)
Target: TAR DNA-binding protein 43, full length, His tag (TARDBP, Homo sapiens, UniProt Q13148, residues 1-414)
CGGUAC: 0.88
CAGACU: 0.811
UGCGCU: 0.971
CGUAUC: 0.855
ACGCCC: 0.981
AGCCUC: 0.879
GAUAGC: 0.878
CACUAA: 0.863
GGAUAG: 1.01
ACAAUU: 0.947
GAAGUU: 0.942
AGCCCU: 0.999
AAAAAC: 0.905
ACCUUC: 0.876

For quick reference, copied from above (sample 4):
UGCGCU: 0.971
CGUAUC: 0.855
ACGCCC: 0.981
AGCCUC: 0.879
GAUAGC: 0.878
CACUAA: 0.863
GGAUAG: 1.01
ACAAUU: 0.947
